Published values gathered from unrelated publications.
Numbered parts are unrelated; each lists some results of a single study.
Sequence of UniProt Q5VT25 (whole entry, looked up): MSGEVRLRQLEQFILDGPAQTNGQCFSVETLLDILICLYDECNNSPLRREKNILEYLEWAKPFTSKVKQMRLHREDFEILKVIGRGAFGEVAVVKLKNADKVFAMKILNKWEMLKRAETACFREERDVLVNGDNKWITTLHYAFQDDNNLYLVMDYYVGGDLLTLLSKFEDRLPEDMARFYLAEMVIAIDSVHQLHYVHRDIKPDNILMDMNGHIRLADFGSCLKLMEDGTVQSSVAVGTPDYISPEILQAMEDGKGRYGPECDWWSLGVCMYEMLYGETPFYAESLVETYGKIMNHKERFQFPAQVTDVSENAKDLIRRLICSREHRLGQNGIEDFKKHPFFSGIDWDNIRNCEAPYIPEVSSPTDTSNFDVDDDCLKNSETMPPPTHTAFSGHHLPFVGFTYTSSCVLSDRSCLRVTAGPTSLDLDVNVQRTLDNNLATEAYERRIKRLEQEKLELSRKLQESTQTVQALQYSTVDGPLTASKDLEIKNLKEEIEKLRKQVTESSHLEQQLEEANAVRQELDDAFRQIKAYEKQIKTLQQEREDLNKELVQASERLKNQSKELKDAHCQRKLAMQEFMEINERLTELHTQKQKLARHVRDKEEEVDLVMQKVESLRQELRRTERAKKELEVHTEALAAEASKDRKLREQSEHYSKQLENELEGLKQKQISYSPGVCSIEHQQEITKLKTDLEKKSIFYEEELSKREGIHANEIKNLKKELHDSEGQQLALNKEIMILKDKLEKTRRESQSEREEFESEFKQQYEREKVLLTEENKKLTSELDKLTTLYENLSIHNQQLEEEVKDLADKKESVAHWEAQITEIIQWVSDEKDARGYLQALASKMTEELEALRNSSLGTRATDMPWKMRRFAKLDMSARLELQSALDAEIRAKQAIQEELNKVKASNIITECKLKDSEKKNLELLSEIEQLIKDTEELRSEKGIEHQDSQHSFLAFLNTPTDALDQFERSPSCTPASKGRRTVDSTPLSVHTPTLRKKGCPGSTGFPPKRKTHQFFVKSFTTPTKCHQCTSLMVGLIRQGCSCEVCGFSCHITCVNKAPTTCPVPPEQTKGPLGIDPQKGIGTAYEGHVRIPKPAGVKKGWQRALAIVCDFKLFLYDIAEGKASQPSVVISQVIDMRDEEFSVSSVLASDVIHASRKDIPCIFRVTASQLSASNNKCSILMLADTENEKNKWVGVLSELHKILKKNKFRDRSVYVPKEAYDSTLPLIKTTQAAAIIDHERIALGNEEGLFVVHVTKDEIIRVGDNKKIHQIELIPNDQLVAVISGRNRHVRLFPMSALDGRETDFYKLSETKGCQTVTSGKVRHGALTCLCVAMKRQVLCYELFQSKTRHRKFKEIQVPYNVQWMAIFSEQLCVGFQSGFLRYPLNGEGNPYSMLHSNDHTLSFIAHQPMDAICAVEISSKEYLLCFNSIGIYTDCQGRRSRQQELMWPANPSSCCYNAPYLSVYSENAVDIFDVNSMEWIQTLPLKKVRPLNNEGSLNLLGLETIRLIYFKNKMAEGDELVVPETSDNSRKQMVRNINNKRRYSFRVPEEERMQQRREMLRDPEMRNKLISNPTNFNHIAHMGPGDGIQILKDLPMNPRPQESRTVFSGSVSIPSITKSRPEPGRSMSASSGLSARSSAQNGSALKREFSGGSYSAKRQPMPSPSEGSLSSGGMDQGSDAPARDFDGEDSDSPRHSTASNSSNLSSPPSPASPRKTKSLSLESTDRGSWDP
Sequence of UniProt P11309 (whole entry, looked up): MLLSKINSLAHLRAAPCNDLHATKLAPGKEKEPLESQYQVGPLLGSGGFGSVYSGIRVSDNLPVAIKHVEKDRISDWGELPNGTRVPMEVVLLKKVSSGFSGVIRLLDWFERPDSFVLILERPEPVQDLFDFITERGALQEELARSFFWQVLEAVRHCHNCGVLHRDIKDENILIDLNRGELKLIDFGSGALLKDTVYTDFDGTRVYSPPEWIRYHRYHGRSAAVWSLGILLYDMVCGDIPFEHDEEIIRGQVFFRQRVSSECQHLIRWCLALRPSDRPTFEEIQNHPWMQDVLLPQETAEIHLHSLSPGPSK
Sequence of UniProt P49840 (whole entry, looked up): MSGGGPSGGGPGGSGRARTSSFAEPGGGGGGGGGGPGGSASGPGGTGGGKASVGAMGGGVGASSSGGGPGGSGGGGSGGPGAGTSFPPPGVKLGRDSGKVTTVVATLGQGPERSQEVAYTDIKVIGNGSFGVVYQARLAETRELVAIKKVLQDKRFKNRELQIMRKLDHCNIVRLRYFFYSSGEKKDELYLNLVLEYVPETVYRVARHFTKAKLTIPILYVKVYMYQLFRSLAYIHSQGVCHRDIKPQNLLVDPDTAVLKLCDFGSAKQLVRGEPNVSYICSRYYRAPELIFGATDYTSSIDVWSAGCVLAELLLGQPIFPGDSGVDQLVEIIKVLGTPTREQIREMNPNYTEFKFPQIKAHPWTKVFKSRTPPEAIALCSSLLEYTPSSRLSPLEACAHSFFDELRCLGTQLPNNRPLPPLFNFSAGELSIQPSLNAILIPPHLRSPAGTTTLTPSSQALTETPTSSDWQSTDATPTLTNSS
Sequence of UniProt Q14289 (whole entry, looked up): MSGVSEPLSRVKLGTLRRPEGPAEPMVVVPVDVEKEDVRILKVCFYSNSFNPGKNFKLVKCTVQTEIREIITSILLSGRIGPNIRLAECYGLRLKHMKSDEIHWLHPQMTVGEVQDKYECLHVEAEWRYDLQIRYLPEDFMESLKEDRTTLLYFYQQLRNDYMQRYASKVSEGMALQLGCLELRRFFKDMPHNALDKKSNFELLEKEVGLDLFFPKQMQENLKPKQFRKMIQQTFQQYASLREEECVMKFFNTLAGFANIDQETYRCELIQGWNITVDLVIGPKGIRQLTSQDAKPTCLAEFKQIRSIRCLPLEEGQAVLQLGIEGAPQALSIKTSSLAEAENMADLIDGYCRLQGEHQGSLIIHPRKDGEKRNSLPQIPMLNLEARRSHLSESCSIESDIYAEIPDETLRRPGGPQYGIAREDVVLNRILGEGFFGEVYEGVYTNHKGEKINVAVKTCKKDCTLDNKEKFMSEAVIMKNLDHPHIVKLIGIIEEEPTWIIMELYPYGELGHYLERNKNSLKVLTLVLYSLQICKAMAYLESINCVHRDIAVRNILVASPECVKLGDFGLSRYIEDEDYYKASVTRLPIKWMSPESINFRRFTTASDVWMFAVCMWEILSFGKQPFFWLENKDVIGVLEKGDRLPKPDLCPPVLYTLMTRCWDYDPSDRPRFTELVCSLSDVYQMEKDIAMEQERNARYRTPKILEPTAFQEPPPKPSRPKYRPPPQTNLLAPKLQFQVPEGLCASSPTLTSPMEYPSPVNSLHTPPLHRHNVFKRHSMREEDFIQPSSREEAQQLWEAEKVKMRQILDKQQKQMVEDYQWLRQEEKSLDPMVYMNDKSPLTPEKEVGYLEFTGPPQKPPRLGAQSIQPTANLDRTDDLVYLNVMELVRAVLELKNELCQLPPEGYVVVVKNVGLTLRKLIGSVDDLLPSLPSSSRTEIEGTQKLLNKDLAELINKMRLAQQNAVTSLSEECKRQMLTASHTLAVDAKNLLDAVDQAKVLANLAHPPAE
Sequence of UniProt P42679 (whole entry, looked up): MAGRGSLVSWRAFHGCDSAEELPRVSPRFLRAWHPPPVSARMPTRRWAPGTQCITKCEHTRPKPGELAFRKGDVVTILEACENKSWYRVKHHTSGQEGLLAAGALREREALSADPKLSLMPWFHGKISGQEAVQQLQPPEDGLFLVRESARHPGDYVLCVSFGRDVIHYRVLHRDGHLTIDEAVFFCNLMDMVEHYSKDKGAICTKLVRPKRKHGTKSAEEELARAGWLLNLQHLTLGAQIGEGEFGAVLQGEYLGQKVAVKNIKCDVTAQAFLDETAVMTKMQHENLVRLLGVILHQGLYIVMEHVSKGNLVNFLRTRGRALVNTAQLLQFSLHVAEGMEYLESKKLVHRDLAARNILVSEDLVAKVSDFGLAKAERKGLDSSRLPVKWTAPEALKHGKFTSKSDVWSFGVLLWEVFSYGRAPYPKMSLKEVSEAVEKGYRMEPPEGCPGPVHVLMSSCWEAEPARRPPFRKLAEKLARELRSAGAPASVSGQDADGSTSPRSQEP

Set 1 — effect on: enzyme activity; mode: inhibitor; tested at: 10 µM; endpoint: inhibition
Target: Calcium/calmodulin-dependent protein kinase type II subunit alpha (CAMK2A, Homo sapiens, UniProt Q9UQM7)
Sequence of UniProt Q9UQM7 (whole entry, looked up): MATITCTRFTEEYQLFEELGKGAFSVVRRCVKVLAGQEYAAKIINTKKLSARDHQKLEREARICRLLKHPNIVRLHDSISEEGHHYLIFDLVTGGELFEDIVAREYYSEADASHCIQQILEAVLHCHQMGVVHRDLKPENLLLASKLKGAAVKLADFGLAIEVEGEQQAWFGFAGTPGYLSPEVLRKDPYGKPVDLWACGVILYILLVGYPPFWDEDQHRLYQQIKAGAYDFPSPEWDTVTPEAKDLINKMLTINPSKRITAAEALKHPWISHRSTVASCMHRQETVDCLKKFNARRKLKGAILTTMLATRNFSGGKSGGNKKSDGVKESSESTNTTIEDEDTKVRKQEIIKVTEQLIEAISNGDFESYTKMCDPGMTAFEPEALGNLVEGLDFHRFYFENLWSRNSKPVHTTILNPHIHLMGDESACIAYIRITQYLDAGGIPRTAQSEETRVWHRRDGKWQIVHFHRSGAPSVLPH
O=C1CC(c2ccc(O)cc2)Oc2cc(O)cc(O)c21 (racemic): 18%
C[C@@H]1O[C@@H](Oc2cc(O)c3c(=O)c(O)c(-c4ccc(O)cc4)oc3c2)[C@H](O)[C@H](O)[C@H]1O: -85%
CCCc1cc(=O)[nH]c(=S)[nH]1: 3%
CC(=O)O[C@H]([C@@H](O)C[C@@H](C)C1=C2C[C@H](O)[C@H]3[C@@]4(C)CCC(=O)C(C)(C)[C@@H]4CC[C@]3(C)[C@@]2(C)CC1)C(C)(C)O: 11%
CC/C=C\C/C=C\C/C=C\CCCCCCCC(=O)NCc1ccccc1: 20%
NC(=O)C1=CN([C@@H]2O[C@H](COP(=O)(O)OP(=O)(O)OC[C@H]3O[C@@H](n4cnc5c(N)ncnc54)[C@H](O)[C@@H]3O)[C@@H](O)[C@H]2O)C=CC1: 30%
Cc1cc(C(=O)NNCc2ccccc2)no1: 9%
COC(=O)C1=C(C)NC(C)=C(C(=O)O[C@H]2CCN(Cc3ccccc3)C2)[C@H]1c1cccc([N+](=O)[O-])c1: -8%
C#C[C@]1(O)CC[C@H]2[C@@H]3CCc4cc(OC)ccc4[C@H]3CC[C@@]21C: -6%
COc1ccc2c(c1)N(C[C@H](C)CN(C)C)c1ccccc1S2: -8%
CC(=O)OCC1=CO[C@@H](OC(=O)CC(C)C)[C@H]2C1=C[C@H](OC(=O)CC(C)C)[C@]21CO1: -19%
COc1cccc2c1C(=O)c1c(O)c3c(c(O)c1C2=O)C[C@@](O)(C(C)=O)C[C@@H]3O[C@H]1C[C@H](N)[C@H](O)[C@H](C)O1: 22%
CCOC(=O)[C@H](CCc1ccccc1)N[C@H]1CS[C@H](c2cccs2)CN(CC(=O)O)C1=O: -14%
CCOC(=O)CC(O)(CC(=O)OCC)C(=O)OCC: -1%
COc1ccc(CCNCC(O)COc2cccc(C)c2)cc1OC (stereo not drawn): -3%
COc1ccc2cc3n(c(=O)c2c1OC)CCc1cc2c(cc1-3)OCO2: -20%
C/C(=C(\CCOP(=O)(O)O)SC(=O)c1ccccc1)N(C=O)Cc1cnc(C)nc1N: -5%

Set 2 — effect on: enzyme activity; mode: inhibitor; tested at: 0.5 µM; reference: control; endpoint: remaining activity
Target: Serine/threonine-protein kinase 24 (STK24, Homo sapiens, UniProt Q9Y6E0)
Sequence of UniProt Q9Y6E0 (whole entry, looked up): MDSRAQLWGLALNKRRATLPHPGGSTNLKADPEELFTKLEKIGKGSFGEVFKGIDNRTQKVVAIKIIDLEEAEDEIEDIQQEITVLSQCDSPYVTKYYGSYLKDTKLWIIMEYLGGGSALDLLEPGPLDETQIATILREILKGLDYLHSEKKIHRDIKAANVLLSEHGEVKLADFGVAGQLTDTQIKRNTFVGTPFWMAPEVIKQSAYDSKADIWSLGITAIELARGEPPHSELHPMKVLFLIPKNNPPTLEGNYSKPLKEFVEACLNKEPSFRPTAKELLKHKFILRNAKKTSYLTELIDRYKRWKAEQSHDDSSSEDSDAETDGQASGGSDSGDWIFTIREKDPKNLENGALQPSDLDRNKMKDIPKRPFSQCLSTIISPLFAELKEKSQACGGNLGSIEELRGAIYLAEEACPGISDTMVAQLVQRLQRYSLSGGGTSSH
N#CC(=C(N)Sc1ccc(N)cc1)c1ccccc1C(F)(F)F: 89.3%
O=C1NC(=O)C(c2c[nH]c3ccccc23)=C1c1c[nH]c2ccccc12: 61.5%
NC(=O)c1ccc(N(C(N)=O)c2c(F)cccc2F)nc1-c1ccc(F)cc1F: 105%
Nc1nccc(-c2c(-c3ccc(F)cc3)ncn2C2CCNCC2)n1: 98.8%
Fc1ccc(-c2nc3n(c2-c2ccncc2)CCS3)cc1: 94.2%
O=S(=O)(NCCNC/C=C/c1ccc(Br)cc1)c1cccc2cnccc12: 72%
Nc1nc(Nc2ccc(S(N)(=O)=O)cc2)nn1C(=O)c1c(F)cccc1F: 76.9%
CC(C)(C)n1nc(Cc2cccc3ccccc23)c2c(N)ncnc21: 91.3%
Cc1cncc2cccc(S(=O)(=O)N3CCCN(C(=O)CN)C[C@@H]3C)c12: 92.4%
Cc1ccc(NC2=CC(=O)c3sc(C)nc3C2=O)cc1: 82.8%
O=C1Cc2c([nH]c3ccc([N+](=O)[O-])cc23)-c2ccccc2N1: 66.4%
CCc1[nH]c(-c2ccc(OC)cc2)nc1-c1ccncc1: 93.2%
Cc1cc(Nc2nc(-c3ccccc3)nc3ccccc23)n[nH]1: 66%
CC#CC(=O)Nc1cc2c(Nc3ccc(F)c(Cl)c3)ncnc2cn1: 107%
CC[n+]1c(/C=C/N(C)c2ccccc2)n(-c2ccccc2)c2ccc(-c3nc4ccccc4s3)cc21: 99.2%
Nc1ncnc2c1cnn2-c1ccccc1: 96.3%
Oc1ccc(Nc2nc(-c3ccc(Cl)cc3)cs2)cc1: 94.1%
CSc1nc(-c2ccnc(N[C@@H](C)c3ccccc3)c2)c(-c2ccc(F)cc2)[nH]1 (racemic): 113%
CCCC(=O)Oc1ccc2[nH]c(C(=O)c3cc4ccccc4[nH]3)cc2c1: 95.5%
COc1ccc(S(=O)(=O)N(CCO)c2ccccc2CN(C)CC=Cc2ccc(Cl)cc2)cc1: 101%
CC(=O)c1ccc(N2CCOCC2)cc1O: 99%

Set 3 — effect on: cell-free assay; technique: competition with immobilised ligand; tested at: 1 µM; endpoint: remaining binding
Structure (SMILES): Cc1nccc(COC(=O)N2C[C@@H]3[C@@H](CNC(=O)c4ccc5[nH]nnc5c4)[C@@H]3C2)n1
EGFR (Homo sapiens, UniProt P00533, G719C): 100%
PIK3CB (Homo sapiens, UniProt P42338): 84%
Tyrosine-protein kinase ABL1, non-phosphorylated (ABL1, Homo sapiens, UniProt P00519, T315I): 90%
PTK2B (Homo sapiens, UniProt Q14289): 100%
CDC42BPA (Homo sapiens, UniProt Q5VT25): 100%
MATK (Homo sapiens, UniProt P42679): 94%
Tyrosine-protein kinase JAK1, JH2 (JAK1, Homo sapiens, UniProt P23458): 85%
ANKK1 (Homo sapiens, UniProt Q8NFD2): 100%
PRKACB (Homo sapiens, UniProt P22694): 98%
GSK3A (Homo sapiens, UniProt P49840): 82%
MAPK4 (Homo sapiens, UniProt P31152): 94%
PI4KB (Homo sapiens, UniProt Q9UBF8): 97%
DAPK1 (Homo sapiens, UniProt P53355): 95%
MAP3K5 (Homo sapiens, UniProt Q99683): 95%
CDK7 (Homo sapiens, UniProt P50613): 78%
PIP5K1A (Homo sapiens, UniProt Q99755): 100%
FLT3 (Homo sapiens, UniProt P36888, R834Q): 85%
Ribosomal protein S6 kinase alpha-5, C-terminal kinase domain (RPS6KA5, Homo sapiens, UniProt O75582): 74%
CSNK1G2 (Homo sapiens, UniProt P78368): 96%
PLK3 (Homo sapiens, UniProt Q9H4B4): 73%
MAP4K1 (Homo sapiens, UniProt Q92918): 100%
CSF1R (Homo sapiens, UniProt P07333): 88%
PIM1 (Homo sapiens, UniProt P11309): 96%
CDK5 (Homo sapiens, UniProt Q00535): 100%
STK17B (Homo sapiens, UniProt O94768): 85%

Set 4 — medium: hydrocarbon/water; pH: 7.4; endpoint: logD
CC(C)C[C@@H]1NC(=O)[C@H](C)N(C)C(=O)[C@H](CC2CCCCC2)NC(=O)[C@H](C)N(C)C(=O)[C@H]2CCCN2C(=O)[C@H](CC2CCCCC2)NC(=O)CN(CC(C)C)C(=O)[C@H](C2CCCCC2)NC(=O)Cn2cc(nn2)CN(C)C1=O: 2.66
CCCCCN1CC(=O)NC(CC(C)C)C(=O)N(C)C(C)C(=O)NC(C)C(=O)N2CCCC2C(=O)N(Cc2ccc3c(c2)OCO3)CC(=O)NC(CC(C)C)C(=O)N(C)C(C)C(=O)NC(CC(C)C)C(=O)N2CCCC2C1=O (stereo not drawn): 2.46
CCC[C@@H]1NC(=O)[C@H](C)N(C)C(=O)[C@H](CC(C)C)NC(=O)Cn2cc(nn2)CN(C)C(=O)[C@H](CC(C)C)NC(=O)[C@H](C)N(C)C(=O)[C@H](CC)NC(=O)CN(CCC)C(=O)[C@H]2CCCN2C1=O: -1.53
CCC[C@@H]1NC(=O)[C@H](C)N(C)C(=O)[C@H](CC(C)C)NC(=O)Cn2cc(nn2)CN(C)C(=O)[C@H](CC(C)C)NC(=O)[C@H](C)N(C)C(=O)[C@H](CC)NC(=O)CN(CC)C(=O)[C@H]2CCCN2C1=O: -2.22
CC(C)CC1NC(=O)CN(CC2CCCCC2)C(=O)C2CCCN2C(=O)C(CC(C)C)NC(=O)C(C)N(C)C(=O)C(CC(C)C)NC(=O)CN(CCCOC(C)C)C(=O)C2CCCN2C(=O)C(C)NC(=O)C(C)N(C)C1=O (stereo not drawn): ≥ 3.4
CCCN1CC(=O)N[C@@H](CC(C)C)C(=O)N2CCC[C@@H]2C(=O)N(C)[C@@H](C)C(=O)N[C@@H](CC(C)C)C(=O)N(C)[C@@H](C)C(=O)N[C@@H](CC(C)C)C(=O)N(C)Cc2cn(nn2)CC(=O)N[C@@H](CC(C)C)C1=O: -0.403
CCC[C@H]1C(=O)N[C@@H](CC2CCCCC2)C(=O)N(C)[C@@H](C)C(=O)N[C@@H](CC(C)C)C(=O)N(C)Cc2cn(nn2)CC(=O)N[C@@H](CC(C)C)C(=O)N(C)[C@@H](C)C(=O)N[C@@H](CC2CCCCC2)C(=O)N2CCC[C@@H]2C(=O)N1C: 2.29
CCCCCN1CC(=O)N[C@@H](C)C(=O)N2CCC[C@@H]2C(=O)N(C)[C@@H](CC(C)C)C(=O)N[C@@H](C)C(=O)N(CC)CC(=O)N[C@@H](CC(C)C)C(=O)N2CCC[C@@H]2C(=O)N(C)[C@@H](CC(C)C)C(=O)N[C@@H](C)C1=O: 1
CCCN1CC(=O)N[C@@H](CC(C)C)C(=O)N2CCC[C@@H]2C(=O)N(C)[C@@H](C)C(=O)N[C@@H](CC2CCCCC2)C(=O)N(C)[C@@H](C)C(=O)N[C@@H](CC(C)C)C(=O)N(C)Cc2cn(nn2)CC(=O)N[C@@H](CC(C)C)C1=O: 0.711
CCCN1CC(=O)N[C@@H](CC2CCCCC2)C(=O)N2CCC[C@@H]2C(=O)N(C)[C@@H](C)C(=O)N[C@@H](CC2CCCCC2)C(=O)N(C)[C@@H](C)C(=O)N[C@@H](CC(C)C)C(=O)N(C)Cc2cn(nn2)CC(=O)N[C@@H](CC(C)C)C1=O: 1.79
CCCCCN1CC(=O)N[C@@H](C)C(=O)N2CCC[C@@H]2C(=O)N(C)[C@@H](CC(C)C)C(=O)N[C@@H](C)C(=O)N(CCCOC(C)C)CC(=O)N[C@@H](CC(C)C)C(=O)N2CCC[C@@H]2C(=O)N(C)[C@@H](CC(C)C)C(=O)N[C@@H](C)C1=O: 1.66
CC(C)C[C@@H]1NC(=O)CN(Cc2ccc3c(c2)OCO3)C(=O)[C@H](C)NC(=O)[C@H](CC(C)C)N(C)C(=O)[C@H]2CCCN2C(=O)[C@H](Cc2ccccc2)NC(=O)CN(CC2CCOCC2)C(=O)[C@H](C)NC(=O)[C@H](CC(C)C)N(C)C(=O)[C@H]2CCCN2C1=O: 1.64
